{"data": "Assay results of several laboratories", "note": "Each numbered part is a random draw from the data of one study; scales do not carry over between parts."}
{"data": "Block 1", "target": "RNA binding protein fox-1 homolog 2, RRM domain, GST-SBP tag (RBFOX2, Homo sapiens, UniProt O43251-10, residues 100-194)", "method": "RNA Bind-n-Seq", "molecule type": "RNA", "matrix": "in vitro", "tested at": "365 nM", "notes": "natural RNA segment, single round, ends assumed", "baseline": "no-protein control", "reading": "higher = stronger binding", "Construct (chain)": "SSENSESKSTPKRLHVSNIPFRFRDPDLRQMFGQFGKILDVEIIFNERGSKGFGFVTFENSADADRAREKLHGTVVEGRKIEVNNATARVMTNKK"}
{"Sequence": "GGGAGUUCUACAGUCCGACGAUCAUUGGAAAAGAUUUUCAAAAUUAAUAUAAAGUGCAGAAGUUAAAAAUCUAAUAUUUAGUUGUUUAGGAAUAAUCACAAGUAUCGGCAGUCAAUUUUAAAGCAUUAUUAAGUGGAAUUCUCGGGUGCCAA", "RBNS enrichment (R)": 0.432}
{"Sequence": "GGGAGUUCUACAGUCCGACGAUCGAGUGGGGGAGACUUCACCCUGGAGCCAAAGGCUACACCGUACGUGUAGUCCCAGAGCCCGUCACAGCCCUUGUGGUUCAAGCUUCUUCUGCCUCUUUAGGAAGUGAGGGUGGAAUUCUCGGGUGCCAA", "RBNS enrichment (R)": 0.263}
{"Sequence": "GGGAGUUCUACAGUCCGACGAUCUAAACUUUCUUGCAUCAGUAUUCUAAAUUGAGCAAACUGAAAGAUUUUCAUCAGGAAAGGAGCACUGUGGGAAGAGCCCAGUAUUCACAUUUUUUCCCCAUUUUUCAGAAUGGAAUUCUCGGGUGCCAA", "RBNS enrichment (R)": 0.657}
{"Sequence": "GGGAGUUCUACAGUCCGACGAUCAUACAGUUCUCUUCCUUCUCCCCUCCCACCUUUCCCUGGCUUUUUGCCUCCAUUCCAUGAGGCAUACAGUAAGGCUGCCUGCUAGUAAGCAGUCACAUAAGUGGGUACCUUGGAAUUCUCGGGUGCCAA", "RBNS enrichment (R)": 0.262}
{"data": "Block 2", "target": "Histone acetyltransferase KAT6A, winged helix 1, GST fusion (KAT6A, Homo sapiens, UniProt Q92794, residues 1-85)", "method": "protein binding microarray", "molecule type": "double-stranded DNA, one strand shown", "matrix": "in vitro", "tested at": "not given", "notes": "8-mer, flanks averaged, mean of 2 arrays, mostly near background", "baseline": "not given", "reading": "higher = stronger binding", "Construct (chain)": "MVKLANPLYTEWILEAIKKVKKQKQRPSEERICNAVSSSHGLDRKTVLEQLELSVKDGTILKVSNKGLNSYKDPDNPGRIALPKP"}
{"Sequence": "AAGCTTCA", "E-score": -0.114}
{"Sequence": "CGGATGTC", "E-score": 0.315}
{"Sequence": "AGTCTCCC", "E-score": -0.043}
{"Sequence": "ATGTCGTC", "E-score": -0.208}
{"Sequence": "CGATATCA", "E-score": -0.0957}
{"data": "Block 3", "target": "TAR DNA-binding protein 43, full length, His tag (TARDBP, Homo sapiens, UniProt Q13148, residues 1-414)", "method": "RNA Bind-n-Seq", "molecule type": "RNA", "matrix": "in vitro", "tested at": "20 nM", "notes": "6-mer, flanks averaged, single round", "together with": "150 mM LiCl", "baseline": "input library", "reading": "higher = stronger binding"}
{"Sequence": "UGCGGG", "6-mer enrichment (R)": 1.21}
{"Sequence": "UCCAGU", "6-mer enrichment (R)": 0.923}
{"Sequence": "UGGACG", "6-mer enrichment (R)": 1.03}
{"Sequence": "CCGUCA", "6-mer enrichment (R)": 0.839}
{"data": "Single results of other studies"}
{"Molecule": "PhoQ, residues 284 288 289 292 302 303 SLANKL", "target": "PhoP, residues 12 14 15 18 19 TPWLV (Escherichia coli, UniProt P23836)", "assay": "Sort-seq, item: YFP reporter", "system": "E. coli", "setting": "PhoQ-PhoP variant library, together with: 10 µM Mg2+", "how to read": "baseline: high Mg2+ state, higher = stronger signaling", "quantity": "fold induction", "result": 6.51}
{"note": "For quick reference, copied from above (block 2):"}
{"Sequence": "ATGTCGTC", "E-score": -0.208}
